Published values gathered from unrelated publications.
Protocols differ between the studies behind these lines.
Target: NUAK family SNF1-like kinase 1 (NUAK1, Homo sapiens, UniProt O60285)
Residues used in one study (O60285 1-661): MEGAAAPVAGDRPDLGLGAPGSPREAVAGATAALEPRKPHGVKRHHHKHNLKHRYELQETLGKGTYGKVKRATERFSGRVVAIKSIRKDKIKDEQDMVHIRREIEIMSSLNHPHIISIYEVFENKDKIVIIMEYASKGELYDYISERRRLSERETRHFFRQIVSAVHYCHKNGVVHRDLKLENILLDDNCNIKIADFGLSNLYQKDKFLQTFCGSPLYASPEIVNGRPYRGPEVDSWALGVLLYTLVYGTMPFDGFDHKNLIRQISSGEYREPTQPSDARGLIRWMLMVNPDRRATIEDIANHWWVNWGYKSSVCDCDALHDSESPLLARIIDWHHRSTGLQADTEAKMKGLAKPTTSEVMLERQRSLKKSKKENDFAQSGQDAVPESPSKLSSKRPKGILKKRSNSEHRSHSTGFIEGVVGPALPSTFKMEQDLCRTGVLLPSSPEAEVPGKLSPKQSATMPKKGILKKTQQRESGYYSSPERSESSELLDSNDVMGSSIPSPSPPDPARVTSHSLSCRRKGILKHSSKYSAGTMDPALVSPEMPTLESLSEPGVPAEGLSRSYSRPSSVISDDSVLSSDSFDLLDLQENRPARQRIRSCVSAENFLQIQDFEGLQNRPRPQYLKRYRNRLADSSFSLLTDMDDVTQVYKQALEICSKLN

For `CCN(CC)c1ccc(C2=NNC(=O)CC2C)cc1[N+](=O)[O-]` (stereo not drawn), the remaining activity was 85% (enzyme activity, inhibitor; 10 µM; relative to: vehicle).
`C[C@@H](c1ccc(-n2cnc3c(N)ncnc32)cc1)N1CCc2nn(C)c(Cc3ccccc3)c2C1=O` gave a remaining binding of 96% (KINOMEscan; 0.1 µM; relative to: DMSO).
For `CCCOc1ccc(OC)c(F)c1C(=O)c1ccc(C(=O)N[C@@H]2CNC[C@H]2NC(=O)c2ccc3[nH]ncc3c2)cc1`, the remaining activity was 5% (enzyme activity; 10 µM).
`COc1cc(-c2cncc3c2CN(C)Cc2cc(N4CCNCC4)ccc2-3)cc(OC)c1OC` gave a remaining activity of 91% (kinase activity; 1 µM, human enzyme, added: ATP 10 µM; relative to: DMSO control).
For `O=C1NC(=O)/C(=C/c2ccc(-c3ccc(F)cc3O)o2)S1`, the remaining activity was 73% (enzyme activity; 10 µM).
`COc1cc(F)ccc1-c1ncnc(Nc2cccc(C[S@](C)(=N)=O)c2)n1` gave a remaining activity of 39% (kinase activity; 10 µM, added: 10 µM ATP).
For `C1=C/COCc2cc(ccc2OCCN2CCCC2)Nc2nccc(n2)-c2cccc(c2)COC/1`, “percent of control” read 39% (concentration not given, gene name ARK5).
`O=C(NC1CCC1)c1ccc2nc(-c3cccc(NS(=O)(=O)NCCN4CCCCC4)c3)cn2c1` gave a remaining activity of 95% (enzyme activity; 10 µM).
`C=CC(=O)N1CCC(C(=O)NCC(=O)N2CCN(c3nc(-c4cnc(N)nc4C(F)F)nc(N4CCOCC4)n3)CC2)CC1` has a remaining binding of 99% (KINOMEscan; 1 µM).
`CNc1ncc2c(/C=C/C(=O)N3CCC(OC)CC3)nn(Cc3cccc(C(F)(F)F)c3)c2n1` has a remaining activity of 94% (kinase activity, inhibitor; 1 µM; relative to: untreated control).
The remaining binding of `C=CC(=O)N1CCC(COCC(=O)N2CCN(c3nc(-c4cnc(N)nc4C(F)F)nc(N4CCOC[C@@H]4C)n3)CC2)CC1` is reported as 100% (KINOMEscan; 1 µM; relative to: DMSO control).
`Cc1cc(Nc2cc(N3CCN(C)CC3)nc(Sc3ccc(NC(=O)C4CC4)cc3)n2)[nH]n1` gave a remaining activity of 79% (kinase activity, KinaseProfiler; 0.03 µM, species human; relative to: control).

A few entries again:
`Cc1cc(Nc2cc(N3CCN(C)CC3)nc(Sc3ccc(NC(=O)C4CC4)cc3)n2)[nH]n1` gave a remaining activity of 79% (kinase activity, KinaseProfiler; 0.03 µM, species human; relative to: control).
